{"data": "Measurements from different studies", "note": "Each numbered part is a random draw from the data of one study; scales do not carry over between parts.", "chain of UniProt Q14012 (whole entry, looked up)": "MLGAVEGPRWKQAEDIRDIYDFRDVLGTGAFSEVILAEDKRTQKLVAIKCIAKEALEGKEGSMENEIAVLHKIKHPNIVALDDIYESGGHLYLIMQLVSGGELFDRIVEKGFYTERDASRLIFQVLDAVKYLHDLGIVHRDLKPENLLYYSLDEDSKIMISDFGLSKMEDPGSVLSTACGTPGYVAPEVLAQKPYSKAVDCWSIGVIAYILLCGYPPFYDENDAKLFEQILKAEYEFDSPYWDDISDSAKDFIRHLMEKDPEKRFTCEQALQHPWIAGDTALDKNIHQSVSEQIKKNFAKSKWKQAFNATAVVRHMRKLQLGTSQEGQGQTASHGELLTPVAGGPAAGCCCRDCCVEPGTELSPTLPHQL", "chain of UniProt Q8N752 (whole entry, looked up)": "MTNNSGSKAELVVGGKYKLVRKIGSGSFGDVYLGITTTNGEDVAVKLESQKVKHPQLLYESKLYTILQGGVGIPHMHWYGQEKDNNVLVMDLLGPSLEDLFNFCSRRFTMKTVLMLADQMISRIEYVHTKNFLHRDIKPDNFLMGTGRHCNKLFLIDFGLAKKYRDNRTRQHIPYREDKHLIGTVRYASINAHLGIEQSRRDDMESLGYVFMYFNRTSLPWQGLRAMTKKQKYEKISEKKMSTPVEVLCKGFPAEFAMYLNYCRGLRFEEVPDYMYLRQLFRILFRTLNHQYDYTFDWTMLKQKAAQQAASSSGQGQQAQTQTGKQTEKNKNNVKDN", "chain of UniProt P23458 (whole entry, looked up)": "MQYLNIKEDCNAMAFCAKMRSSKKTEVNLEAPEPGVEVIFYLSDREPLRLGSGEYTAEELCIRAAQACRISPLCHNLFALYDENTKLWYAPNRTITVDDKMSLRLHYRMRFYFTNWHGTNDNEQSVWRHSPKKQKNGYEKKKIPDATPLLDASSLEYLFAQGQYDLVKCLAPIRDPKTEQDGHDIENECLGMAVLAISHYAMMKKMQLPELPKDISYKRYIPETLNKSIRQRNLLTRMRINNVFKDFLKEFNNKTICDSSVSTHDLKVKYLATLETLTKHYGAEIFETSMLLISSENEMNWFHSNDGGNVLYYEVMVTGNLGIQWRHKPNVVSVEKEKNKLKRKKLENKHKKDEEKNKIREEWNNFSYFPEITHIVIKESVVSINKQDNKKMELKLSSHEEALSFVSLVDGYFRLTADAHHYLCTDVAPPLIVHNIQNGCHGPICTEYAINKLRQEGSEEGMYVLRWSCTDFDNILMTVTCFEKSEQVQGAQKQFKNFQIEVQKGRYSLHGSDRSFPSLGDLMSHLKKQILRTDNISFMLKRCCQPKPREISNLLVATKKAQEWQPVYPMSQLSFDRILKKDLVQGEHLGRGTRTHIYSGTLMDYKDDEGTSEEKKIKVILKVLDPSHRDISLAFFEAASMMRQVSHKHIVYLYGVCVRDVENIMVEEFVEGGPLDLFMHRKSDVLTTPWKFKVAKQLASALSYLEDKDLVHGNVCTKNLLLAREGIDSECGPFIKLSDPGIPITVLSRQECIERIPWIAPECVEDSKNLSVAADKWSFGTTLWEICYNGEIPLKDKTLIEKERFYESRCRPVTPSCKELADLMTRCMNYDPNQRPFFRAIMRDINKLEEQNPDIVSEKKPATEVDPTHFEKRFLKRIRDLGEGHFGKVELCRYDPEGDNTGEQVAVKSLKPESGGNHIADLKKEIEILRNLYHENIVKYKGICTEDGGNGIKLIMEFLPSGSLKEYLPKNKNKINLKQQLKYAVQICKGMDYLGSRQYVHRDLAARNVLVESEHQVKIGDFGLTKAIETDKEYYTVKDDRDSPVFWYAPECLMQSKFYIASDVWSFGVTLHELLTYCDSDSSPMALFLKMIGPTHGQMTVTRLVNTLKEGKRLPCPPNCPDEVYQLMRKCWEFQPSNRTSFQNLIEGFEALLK", "chain of UniProt P36894 (whole entry, looked up)": "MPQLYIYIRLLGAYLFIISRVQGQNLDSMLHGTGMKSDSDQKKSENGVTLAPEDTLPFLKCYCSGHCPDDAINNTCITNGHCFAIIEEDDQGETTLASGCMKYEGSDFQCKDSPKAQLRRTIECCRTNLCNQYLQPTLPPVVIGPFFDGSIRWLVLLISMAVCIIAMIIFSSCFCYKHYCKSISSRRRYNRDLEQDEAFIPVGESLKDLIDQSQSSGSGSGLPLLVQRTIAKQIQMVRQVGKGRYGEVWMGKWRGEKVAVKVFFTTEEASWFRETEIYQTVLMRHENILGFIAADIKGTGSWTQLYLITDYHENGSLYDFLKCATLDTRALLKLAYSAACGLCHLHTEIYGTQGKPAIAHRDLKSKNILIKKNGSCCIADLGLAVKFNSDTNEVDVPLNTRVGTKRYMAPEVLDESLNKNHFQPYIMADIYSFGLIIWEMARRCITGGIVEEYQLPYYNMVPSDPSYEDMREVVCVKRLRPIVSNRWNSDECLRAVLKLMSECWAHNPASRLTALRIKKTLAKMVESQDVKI", "chain of UniProt P42680 (whole entry, looked up)": "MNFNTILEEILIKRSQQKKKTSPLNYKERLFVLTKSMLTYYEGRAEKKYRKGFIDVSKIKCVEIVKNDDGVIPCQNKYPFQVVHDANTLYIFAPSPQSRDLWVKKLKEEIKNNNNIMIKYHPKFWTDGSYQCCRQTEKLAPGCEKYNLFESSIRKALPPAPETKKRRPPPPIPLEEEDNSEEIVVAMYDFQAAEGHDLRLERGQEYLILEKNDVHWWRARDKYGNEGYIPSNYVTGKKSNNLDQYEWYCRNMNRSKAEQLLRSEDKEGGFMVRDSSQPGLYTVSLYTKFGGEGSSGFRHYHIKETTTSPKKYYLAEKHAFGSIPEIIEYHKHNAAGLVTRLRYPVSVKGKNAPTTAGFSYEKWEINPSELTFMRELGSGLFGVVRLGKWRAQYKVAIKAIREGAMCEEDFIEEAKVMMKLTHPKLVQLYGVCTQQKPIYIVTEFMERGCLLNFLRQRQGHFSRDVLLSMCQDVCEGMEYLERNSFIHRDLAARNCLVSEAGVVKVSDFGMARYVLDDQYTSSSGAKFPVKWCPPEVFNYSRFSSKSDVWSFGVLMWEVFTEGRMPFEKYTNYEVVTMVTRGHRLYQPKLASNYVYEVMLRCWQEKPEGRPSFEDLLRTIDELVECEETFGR", "chain of UniProt O15264 (whole entry, looked up)": "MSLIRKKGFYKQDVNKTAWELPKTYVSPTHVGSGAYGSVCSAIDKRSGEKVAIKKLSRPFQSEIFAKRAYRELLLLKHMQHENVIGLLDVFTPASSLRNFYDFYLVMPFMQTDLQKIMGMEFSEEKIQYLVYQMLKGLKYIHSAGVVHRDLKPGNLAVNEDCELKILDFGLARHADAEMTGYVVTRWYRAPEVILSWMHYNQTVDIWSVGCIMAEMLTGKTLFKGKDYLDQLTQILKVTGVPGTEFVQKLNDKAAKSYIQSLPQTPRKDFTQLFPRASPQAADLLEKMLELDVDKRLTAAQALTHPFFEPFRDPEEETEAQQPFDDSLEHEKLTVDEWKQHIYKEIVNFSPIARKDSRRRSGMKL", "chain of UniProt O00141 (whole entry, looked up)": "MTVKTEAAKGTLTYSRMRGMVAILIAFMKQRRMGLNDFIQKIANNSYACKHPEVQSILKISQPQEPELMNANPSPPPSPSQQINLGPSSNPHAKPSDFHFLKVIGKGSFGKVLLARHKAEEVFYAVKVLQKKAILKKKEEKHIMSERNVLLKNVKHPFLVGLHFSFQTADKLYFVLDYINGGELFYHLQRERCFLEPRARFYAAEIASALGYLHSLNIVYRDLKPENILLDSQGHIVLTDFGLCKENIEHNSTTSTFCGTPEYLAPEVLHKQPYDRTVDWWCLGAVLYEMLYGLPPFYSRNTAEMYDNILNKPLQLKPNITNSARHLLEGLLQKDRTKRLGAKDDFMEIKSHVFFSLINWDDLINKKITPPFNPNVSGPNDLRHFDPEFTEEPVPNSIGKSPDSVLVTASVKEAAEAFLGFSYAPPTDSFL", "chain of UniProt Q04759 (whole entry, looked up)": "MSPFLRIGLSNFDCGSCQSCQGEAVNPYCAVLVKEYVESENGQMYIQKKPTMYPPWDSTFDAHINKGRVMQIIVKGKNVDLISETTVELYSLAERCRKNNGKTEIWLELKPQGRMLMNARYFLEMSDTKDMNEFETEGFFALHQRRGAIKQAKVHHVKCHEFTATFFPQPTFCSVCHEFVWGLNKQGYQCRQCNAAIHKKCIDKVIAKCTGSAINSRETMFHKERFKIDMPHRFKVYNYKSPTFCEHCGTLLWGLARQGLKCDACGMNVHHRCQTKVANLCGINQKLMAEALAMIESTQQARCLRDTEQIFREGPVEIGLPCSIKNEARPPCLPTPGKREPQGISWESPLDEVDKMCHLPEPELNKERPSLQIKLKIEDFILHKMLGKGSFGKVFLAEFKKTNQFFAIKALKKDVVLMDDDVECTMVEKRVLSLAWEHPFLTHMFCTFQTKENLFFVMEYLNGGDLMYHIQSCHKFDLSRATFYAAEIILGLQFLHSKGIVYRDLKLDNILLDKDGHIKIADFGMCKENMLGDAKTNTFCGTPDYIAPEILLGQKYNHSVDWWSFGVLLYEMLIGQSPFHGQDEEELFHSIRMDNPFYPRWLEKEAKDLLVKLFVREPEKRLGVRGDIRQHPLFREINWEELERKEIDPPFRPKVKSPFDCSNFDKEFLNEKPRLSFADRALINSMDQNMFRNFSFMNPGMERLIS", "chain of UniProt P48730 (whole entry, looked up)": "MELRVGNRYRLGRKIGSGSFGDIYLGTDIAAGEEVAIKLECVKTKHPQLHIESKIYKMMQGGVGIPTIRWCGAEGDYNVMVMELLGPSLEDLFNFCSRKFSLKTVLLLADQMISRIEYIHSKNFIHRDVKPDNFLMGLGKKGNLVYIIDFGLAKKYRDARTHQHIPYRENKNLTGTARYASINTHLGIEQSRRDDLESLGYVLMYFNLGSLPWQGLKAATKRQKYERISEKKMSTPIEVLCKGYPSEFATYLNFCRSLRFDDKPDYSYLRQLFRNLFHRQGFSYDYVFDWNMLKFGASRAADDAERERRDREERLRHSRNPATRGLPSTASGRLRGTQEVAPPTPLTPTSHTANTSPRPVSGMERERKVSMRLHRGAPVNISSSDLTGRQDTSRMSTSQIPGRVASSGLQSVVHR"}
{"data": "Study 1", "target": "Sal-like protein 4, full length isoform B (SALL4, Homo sapiens, UniProt Q9UJQ4-2, residues 1-616)", "method": "universal PBM", "molecule type": "double-stranded DNA, one strand shown", "sample": "in vitro", "concentration": "not given", "notes": "8-mer, flanks averaged, mean of replicates", "direction": "higher = stronger binding", "Residues (chain)": "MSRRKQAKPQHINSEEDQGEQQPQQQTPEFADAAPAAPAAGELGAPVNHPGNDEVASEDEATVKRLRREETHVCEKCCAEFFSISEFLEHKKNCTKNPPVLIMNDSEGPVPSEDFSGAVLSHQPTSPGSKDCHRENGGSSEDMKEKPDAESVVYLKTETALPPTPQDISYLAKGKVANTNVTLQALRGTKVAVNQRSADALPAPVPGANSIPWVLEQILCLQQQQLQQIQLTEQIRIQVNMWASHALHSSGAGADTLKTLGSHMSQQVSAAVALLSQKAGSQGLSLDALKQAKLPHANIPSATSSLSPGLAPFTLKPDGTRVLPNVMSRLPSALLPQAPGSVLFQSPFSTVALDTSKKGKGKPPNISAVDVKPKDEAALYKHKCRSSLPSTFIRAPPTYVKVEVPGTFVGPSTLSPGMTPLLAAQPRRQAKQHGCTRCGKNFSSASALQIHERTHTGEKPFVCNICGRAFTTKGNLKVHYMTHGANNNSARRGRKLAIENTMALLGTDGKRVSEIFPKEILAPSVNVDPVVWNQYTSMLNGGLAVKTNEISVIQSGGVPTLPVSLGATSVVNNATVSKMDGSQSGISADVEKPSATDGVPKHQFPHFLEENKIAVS"}
{"Sequence": "TATAGTCA", "E-score": 0.269}
{"Sequence": "GACGGAGC", "E-score": -0.276}
{"Sequence": "AGCAAGAG", "E-score": -0.0716}
{"Sequence": "AAGTCGCC", "E-score": -0.305}
{"Sequence": "AAGAGACA", "E-score": 0.101}
{"Sequence": "ATGAAGAA", "E-score": 0.229}
{"Sequence": "CAAGAATC", "E-score": 0.0757}
{"Sequence": "CCGCGTAG", "E-score": -0.152}
{"data": "Study 2", "target": "Interferon regulatory factor 7, full length, phosphomimetic (IRF7, Homo sapiens, UniProt Q92985, residues 1-503, S471D/S472D/S475D/S476D/S477D/S483D/S484D/S487D)", "method": "protein-binding microarray", "molecule type": "double-stranded DNA, one strand shown", "sample": "in vitro", "concentration": "2200 nM top", "notes": "60-bp whole probe", "together with": "salmon DNA 0.4 mg/ml", "baseline": "random background probes", "direction": "higher = stronger binding", "shared flanks, not repeated": "GCCTAGCAC … GTCTTGATTCGCTTGACGCTGCTG", "Residues (chain)": "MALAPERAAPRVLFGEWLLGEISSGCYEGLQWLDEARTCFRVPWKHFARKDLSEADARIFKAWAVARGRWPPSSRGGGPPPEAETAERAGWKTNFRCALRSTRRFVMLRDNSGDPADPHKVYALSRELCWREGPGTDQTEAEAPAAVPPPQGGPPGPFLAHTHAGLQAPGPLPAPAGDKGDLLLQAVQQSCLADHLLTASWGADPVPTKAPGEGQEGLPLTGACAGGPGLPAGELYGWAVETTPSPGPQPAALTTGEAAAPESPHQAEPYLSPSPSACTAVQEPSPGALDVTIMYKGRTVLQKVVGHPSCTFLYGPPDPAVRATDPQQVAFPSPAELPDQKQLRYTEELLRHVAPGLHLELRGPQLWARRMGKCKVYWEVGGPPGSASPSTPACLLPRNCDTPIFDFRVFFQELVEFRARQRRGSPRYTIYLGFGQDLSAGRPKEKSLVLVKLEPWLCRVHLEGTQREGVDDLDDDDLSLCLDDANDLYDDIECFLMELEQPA"}
{"Sequence": "GACGATGTCAGACTGGAGACGTGCTAG", "fitted relative affinity": "-0.17 z-score"}
{"Sequence": "GACGGTTTCCTTTTACTGACGTGCTAG", "fitted relative affinity": "5.57 z-score"}
{"Sequence": "TTAGGTTTCCTTCTGCTTTAGTGCTAG", "fitted relative affinity": "2.44 z-score"}
{"Sequence": "TTAGGGCTCCTTTTCCTTTAGTGCTAG", "fitted relative affinity": "0.951 z-score"}
{"Sequence": "TTAGGACTGGACTATCGCTTAGTGCTA", "fitted relative affinity": "-0.311 z-score"}
{"Sequence": "TTAGAACTGAGCCTGGATTAGTGCTAG", "fitted relative affinity": "-0.469 z-score"}
{"Sequence": "AACACAAACCCGCTGGAGTTGTGCTAG", "fitted relative affinity": "0.158 z-score"}
{"Sequence": "GACCGACTGCTTCTCCTGACGTGCTAG", "fitted relative affinity": "0.755 z-score"}
{"data": "Study 3", "SMILES": "CCS(=O)(=O)c1cc2cc(C[C@@](O)(CC(C)(C)c3ccc(F)cc3C(N)=O)C(F)(F)F)[nH]c2cn1", "read-out": "cell-free assay", "method": "competition with immobilised ligand", "concentration": "1 µM"}
{"target": "Mitogen-activated protein kinase 7 (MAPK7, Homo sapiens, UniProt Q13164)", "remaining binding": "81%"}
{"target": "Phosphatidylinositol 4-phosphate 5-kinase type-1 gamma (PIP5K1C, Homo sapiens, UniProt O60331)", "remaining binding": "98%"}
{"target": "Phosphatidylinositol 4,5-bisphosphate 3-kinase catalytic subunit alpha isoform (PIK3CA, Homo sapiens, UniProt P42336)", "remaining binding": "100%"}
{"target": "Interleukin-1 receptor-associated kinase 3 (IRAK3, Homo sapiens, UniProt Q9Y616)", "remaining binding": "67%"}
{"target": "Bone morphogenetic protein receptor type-1A (BMPR1A, Homo sapiens, UniProt P36894)", "remaining binding": "100%"}
{"target": "Casein kinase II subunit alpha (CSNK2A1, Homo sapiens, UniProt P68400)", "remaining binding": "75%"}
{"target": "Phosphatidylinositol 4-phosphate 5-kinase type-1 alpha (PIP5K1A, Homo sapiens, UniProt Q99755)", "remaining binding": "100%"}
{"target": "Mitogen-activated protein kinase 13 (MAPK13, Homo sapiens, UniProt O15264)", "remaining binding": "96%"}
{"target": "Casein kinase I isoform alpha-like (CSNK1A1L, Homo sapiens, UniProt Q8N752)", "remaining binding": "99%"}
{"target": "Homeodomain-interacting protein kinase 2 (HIPK2, Homo sapiens, UniProt Q9H2X6)", "remaining binding": "100%"}
{"target": "Serine/threonine-protein kinase LATS1 (LATS1, Homo sapiens, UniProt O95835)", "remaining binding": "77%"}
{"target": "Serine/threonine-protein kinase Sgk1 (SGK1, Homo sapiens, UniProt O00141)", "remaining binding": "79%"}
{"data": "Study 4", "SMILES": "O=C1Nc2ccccc2/C1=C\\c1c(Cl)[nH]c2ccccc12", "read-out": "enzyme activity", "action": "inhibitor", "concentration": "0.5 µM", "baseline": "control"}
{"target": "Serine/threonine-protein kinase SIK2 (SIK2, Homo sapiens, UniProt Q9H0K1)", "remaining activity": "103%"}
{"target": "Protein kinase C theta type (PRKCQ, Homo sapiens, UniProt Q04759)", "remaining activity": "91.7%"}
{"target": "Serine/threonine-protein kinase Sgk2 (SGK2, Homo sapiens, UniProt Q9HBY8)", "remaining activity": "103%"}
{"target": "Serine/threonine-protein kinase PAK 6 (PAK6, Homo sapiens, UniProt Q9NQU5)", "remaining activity": "101%"}
{"target": "Tyrosine-protein kinase JAK1 (JAK1, Homo sapiens, UniProt P23458)", "remaining activity": "96.6%"}
{"target": "Tyrosine-protein kinase Tec (TEC, Homo sapiens, UniProt P42680)", "remaining activity": "124%"}
{"target": "Casein kinase I isoform epsilon (CSNK1E, Homo sapiens, UniProt P49674)", "remaining activity": "87.8%"}
{"target": "Casein kinase I isoform delta (CSNK1D, Homo sapiens, UniProt P48730)", "remaining activity": "90.5%"}
{"target": "Calcium/calmodulin-dependent protein kinase type 1 (CAMK1, Homo sapiens, UniProt Q14012)", "remaining activity": "106%"}
{"target": "Dual specificity protein kinase CLK2 (CLK2, Homo sapiens, UniProt P49760)", "remaining activity": "92.7%"}
